Results pooled from the literature.
Each line is one published result; not all experiments were run side by side.
Target: cAMP-dependent protein kinase catalytic subunit alpha (PRKACA, Homo sapiens, UniProt P17612)

SMILES	assay	conditions	scale	measurement	value
c1ccc2c(Nc3cc(C4CCC4)[nH]n3)nc(Nc3ccc4nc[nH]c4c3)nc2c1	enzyme activity, inhibitor	0.25 µM	–	remaining activity	65%
CN1CCN(Cc2ccc(NC(=O)c3cccc(C#Cc4cnc(N)c5ncccc45)c3)cc2C(F)(F)F)CC1	cell-free assay, competition with immobilised ligand	0.5 µM	–	remaining binding	69%
C=CC(=O)Nc1cccc(-c2cnc3[nH]cc(C(=O)NC(C)(C)C)c3n2)c1	enzyme activity, inhibitor	0.1 µM	–	inhibition	4%
NC(=O)C[C@H]1CCc2sc3ncnc(O[C@H]4CC[C@H](N5CCOCC5)CC4)c3c21	enzyme activity, inhibitor	10 µM	–	inhibition	13%
CC(C)=CC1OC(C)(C)C2C=C3C(=O)C(Cl)=CC(O)C3C3C(O)C4OC4C(=O)C132 (stereo not drawn)	cell-free assay, competition with immobilised ligand	10 µM	–	remaining binding	96%
Cc1[nH]nc2c1N=C(c1ccccc1Cl)c1cnc(N3CCOCC3)cc1N2	enzyme activity, inhibitor	0.5 µM	–	inhibition	49.8%
CC(=O)N1c2ccc(-c3ccc(CNC(=O)c4cn5cc(-c6cnc(N)nc6)nc(N6CCOCC6)c5n4)cc3)cc2CC[C@@H]1C	KINOMEscan	10 µM	–	remaining binding	100%
Cc1ccc(C)c(-c2ccc3nc(NC(=O)C4CCCCC4)nn3c2)c1	enzyme activity, Dundee kinase panel	10 µM	–	remaining activity	82%
COc1c(OCCCN2CCOCC2)ccc2c1N=C(NC(=O)c1cnc(N)nc1)N1CCN=C21	kinase activity, inhibitor	1 µM	reference: untreated control	remaining activity	96%
COc1ccc(NC(=O)Nc2ccc3c(c2)C(=O)N(C(C)CO)CC(C)C(CN(C)Cc2ccc4c(c2)OCO4)O3)cc1 (stereo not drawn)	kinase activity, KinaseProfiler	0.03 µM, species human	reference: control	remaining activity	108%
COCC12C(=O)NC3C4(C(OC)CC1O)C1CC5(O)C(OC)C(O)C(OC(C)=O)(C1C5OC(=O)c1ccccc1)C3(O)C(OC)C24 (stereo not drawn)	kinase activity, inhibitor, ProQinase kinase profiling	25 µM	reference: control	remaining activity	115%
Cc1cccc(-c2ccc3nc(NC(=O)C4CCCO4)nn3c2)c1 (stereo not drawn)	enzyme activity, Dundee kinase panel	10 µM	–	remaining activity	84%
CCn1cc(C(=O)O)c(=O)c2c(N)c(F)c(NC3CCCCC3)cc21	kinase activity	0.1 µM, added: ATP at Km	–	inhibition	0.5%
O=C(O)CCC(=O)c1cccc(NS(=O)(=O)c2c[nH]c3ncccc23)c1	kinase activity, radiometric	10 µM	–	remaining activity	89%
C=C1CCCCCCCCCC(CO)C1=O (stereo not drawn)	cell-free assay	10 µM	–	remaining signal	100%
CNC(=O)C[C@H](Cc1ccc(C#N)cc1)NC(=O)c1cc(-c2ccc(CN[C@H](C)c3ccc(C)cc3)o2)ccc1Cl	enzyme activity, inhibitor	1 µM	–	activity vs control	107%
O=C=[N][Ru-4]123([n]4c5ccc(O)cc5c5c6c(c7cc(F)c[n+]1c7c54)C(=O)NC6=O)[S+]1CC[S+]2CC[S+]3CC1 (stereo not drawn)	enzyme activity	100 nM, human enzyme, added: 10 µM ATP	reference: untreated	remaining activity	72%
Nc1nc(Nc2ccccc2)sc1C(=O)c1ccccc1	enzyme activity, inhibitor	10 µM	–	remaining activity	77%
COc1cc(Nc2nccc(-c3cnn4nc(OC)ccc34)n2)cc(C(F)(F)F)c1	binding, competition with immobilised ligand	1 µM	–	remaining binding	97%
Cc1nc2c(F)cc(-c3nc(Nc4ccc(CNC(=O)CCCCCCC(=O)NO)cc4)ncc3F)cc2n1C(C)C	enzyme activity, inhibitor	1 µM	–	inhibition	13%
Cc1cccc(O[C@H]2CCC[C@@H](C(C)CNCc3ccncc3)C2)c1 (relative stereo)	enzyme activity, inhibitor	10 µM	–	inhibition	-3%
Nc1ncc2c(n1)-c1c([nH]c3ccc(C4=CCOCC4)cc13)CCC2	binding, competition with immobilised ligand	1 µM	–	remaining binding	100%
CN1CC[C@@H](COc2cnc(C#N)cc2-c2ccn3nc(NC(=O)C4CC4)cc3c2)C1	enzyme activity, inhibitor	1 µM	–	inhibition	16%
COc1ccc(C(=O)/C=C/c2ccccc2-c2c[nH]c3ccc(C#N)cc23)c(O)c1	enzyme activity, inhibitor	20 µM	–	inhibition	-12%
